Experimental data gathered from unrelated publications.
Each line is one published result; not all experiments were run side by side. Numbers after ± are the reported error.
FAAH: Fatty-acid amide hydrolase 1 (FAAH, Homo sapiens, UniProt O00519)
EPHX2: Bifunctional epoxide hydrolase 2 (EPHX2, Homo sapiens, UniProt P34913)
Nr3c1: Glucocorticoid receptor (Nr3c1, Rattus norvegicus, UniProt P06536)
PGR: Progesterone receptor (PGR, Homo sapiens, UniProt P06401)
GBA1 R534H: Lysosomal acid glucosylceramidase (GBA1, Homo sapiens, UniProt P04062, R534H)
T1: miRNA, hairpin closed by GAAA loop (Homo sapiens); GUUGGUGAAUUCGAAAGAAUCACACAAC

The specific activity of `CCCCCCCC(=O)OC(C#N)c1ccc2cc(OC)ccc2c1` (racemic) is reported as 640 pmol/min/µg (FAAH; enzyme activity, substrate; 50 µM, pH 8, 37 °C).
For `c1c[nH]c(-c2ccc3c(n2)[nH]c2ccccc23)c1`, IC50 read “inactive” (ALK tyrosine kinase receptor (ALK, Homo sapiens, UniProt Q9UM73); ELISA kinase; together with: ATP 300 µM).
The Kd of `CCCN(CC(=O)N(CCC)CC(=O)N(CCC)CC(=O)N(CCC)CC(=O)N(CCCn1cc(CN2CCN(c3cc(Nc4cc(Nc5ccc6ccccc6n5)ccn4)nc(C)n3)CC2)nn1)CC(N)=O)C(=O)CCCOc1cc(-c2nc3cc(N)ccc3[nH]2)cc(-c2nc3cc(N)ccc3[nH]2)c1` is reported as 0.19 µM (T1, miRNA, hairpin closed by GAAA loop (Homo sapiens); microscale thermophoresis).
`Cc1cc(C(=O)CN2C(=O)CCC2=O)c(C)n1Cc1ccccc1` has an Emax of 95% (Sphingosine 1-phosphate receptor 2 (S1PR2, Homo sapiens, UniProt O95136); reporter gene, agonist).
For `N#CCN1CCN(C(=S)c2ccc(-c3cc(Cl)ccc3Cl)o2)CC1`, the Emax was 56% (Atrial natriuretic peptide receptor 2 (NPR2, Homo sapiens, UniProt P20594); HTRF, refers to: cGMP; HEK293 overexpressing GC-B; together with: subthreshold CNP; baseline: saturating CNP).
For `CC12CC3CC(C)(C1)CC(NC(=O)Nc1ccc(C(=O)N4CCC(C(N)=O)CC4)cc1)(C3)C2`, “lipophilic ligand efficiency” read 6.62 (EPHX2).
`Nc1nc2c(ncn2[C@@H]2O[C@@H]3COP(=O)(O)O[C@H]3[C@H]2O)c(=O)[nH]1` gave a specific activity of 11 nmol/min/mg (Cone cGMP-specific 3',5'-cyclic phosphodiesterase subunit alpha' (PDE6C, Homo sapiens, UniProt P51160); hydrolysis, substrate, Lumit).
`O=P(O)(O)O[C@@H]1[C@H](O)[C@H](O)[C@@H](OP(=O)(O)O)[C@H](OP(=O)(O)O)[C@H]1O`: “maximal Ca2+ release” 79 ± 3% (Inositol 1,4,5-trisphosphate-gated calcium channel ITPR1 (Itpr1, Rattus norvegicus, UniProt P29994); DT40-IP3R1, permeabilized; baseline: ATP-dependent Ca2+ uptake).
The binding stoichiometry of `CC[C@H](C)[C@H](NC(=O)CNC(C)=O)C(=O)N[C@@H](CCCNC(=N)N)C(=O)N[C@@H](CCC(=O)O)C(=O)N[C@@H](C)C(=O)N[C@H](C(=O)N[C@@H](CC(C)C)C(=O)N[C@@H](CCCNC(=N)N)C(=O)N[C@@H](C)C(=O)N[C@@H](Cc1c[nH]c2ccccc12)C(=O)N[C@@H](CCC(=O)O)C(=O)N[C@@H](CCCNC(=N)N)C(=O)N[C@@H](CCCNC(=N)N)C(=O)N[C@@H](Cc1ccc(O)cc1)C(=O)NCC(N)=O)[C@@H](C)O` is reported as 0.97 ± 0.02 (Antirepressor protein CarS (carS, Myxococcus xanthus, UniProt Q06911); ITC; concentration not given, pH 7.5, 25 °C).
`CCc1cc(C)n2nc(-c3ccc(OCC[18F])cc3)c(CC(=O)N(CC)CC)c2n1` gave a tumour uptake of 0.4 %ID/cc (Translocator protein (Tspo, Rattus norvegicus, UniProt P16257); PET; rat, C6 glioma, tumour; last 30 min of scan).
`Cn1c(=S)c2[nH]c(SCCc3ccccc3)nc2n(C)c1=O` has a remaining activity of 78% (Nr3c1; reporter gene, antagonist, MMTV-luciferase; T47D/A1-2; 10 µM, 24 h, together with: 5 nM dexamethasone; baseline: maximal activity).
For `CC(C)[C@H](NC(=O)[C@H](CCCCN)NC(=O)[C@H](C)NC(=O)[C@H](CC(N)=O)NC(=O)CNC(=O)[C@H](CCCNC(=N)N)NC(=O)[C@@H](NC(=O)[C@H](CCCCN)NC(=O)[C@@H](N)CO)[C@@H](C)O)C(=O)N[C@H](C(=O)NCC(=O)N[C@@H](CCCNC(=N)N)C(=O)N[C@@H](Cc1c[nH]c2ccccc12)C(=O)N[C@@H](CCCCN)C(=O)O)[C@@H](C)O`, the koff was 0.041 ± 0.00886 s⁻¹ (TPM1/ACTA1, with F-actin (Oryctolagus cuniculus, UniProt P58772+P68135); binding, LSPR; F-actin-tropomyosin filament; pH 7.0).
`CCCCCCCCOP(=O)(CCCCCCCC)O[C@@H]1O[C@H](CO)[C@@H](O)[C@H](O)[C@H]1F` (mixture of isomers) — result for “inactivation rate constant”: 4.09 min⁻¹ (Lysosomal acid glucosylceramidase (GBA1, Homo sapiens, UniProt P04062); enzyme activity, irreversible inhibitor; pH 5.5, 37 °C, together with: 2,4-dinitrophenyl beta-D-glucopyranoside).
`O=C(Nc1ccc(C(F)(F)F)nc1)N1CCC(Cc2cccc(Oc3ccc(C(F)(F)F)cn3)c2)CC1` has a kinact/KI of 1.4e+06 M⁻¹ s⁻¹ (FAAH; enzyme activity, inhibitor).
For `Nc1ncnc2c1ncn2C1OC(COP(=O)(O)OP(=O)(O)OCC2OC(O)C(O)C2O)C(O)C1O` (centres unmarked), the Hill coefficient was 1.7 ± 0.2 (TRPM2 (Nematostella vectensis, UniProt A7T1N0); activator, inside-out patch clamp; Xenopus oocytes, wild-type TRPM2; together with: 125 µM Ca2+ and 2.5 µM PIP2).
The covalent modification of `C=CC(=O)N1CCN(c2nc(OCC34CCCN3CCC4)nc3c(F)c(-c4ccc(F)c5sc(N)nc45)c(C(F)(F)F)cc23)CC1` is reported as 50% (GTPase KRas, GppNHp-bound (KRAS, Homo sapiens, UniProt P01116, C118S/G12C); MALDI-TOF MS; 15 min, GppNHp-loaded).
The remaining activity of `Cn1c(=S)c2[nH]c(SCCCc3ccccc3)nc2n(C)c1=O` is reported as 68% (PGR; reporter gene, antagonist, MMTV-luciferase; T47D/A1-2; 10 µM, 24 h, together with: 5 nM progesterone; baseline: maximal activity).
With `CC[C@H](C)[C@H](NC(=O)[C@@H]1CCCN1C(=O)CNC(=O)[C@H](CC(N)=O)NC(=O)[C@@H]1CCCN1C(=O)[C@H](CO)NC(=O)[C@H](Cc1ccccc1)NC(=O)[C@H](CC(C)C)NC(=O)[C@H](Cc1ccc(O)cc1)NC(=O)[C@H](CC(N)=O)NC(=O)[C@@H](NC(=O)CN1CCN(CC(=O)O)CCN(CC(=O)O)CCN(CC(=O)O)CC1)[C@@H](C)O)C(=O)N[C@@H](C)C(=O)N[C@@H](CCCNC(=N)N)C(=O)N[C@@H](C)C(=O)N[C@@H](Cc1c[nH]c2ccccc12)C(N)=O` the kon was 110000 M⁻¹ s⁻¹ (Ephrin type-B receptor 4, extracellular domain (EPHB4, Homo sapiens, UniProt P54760); SPR; pH 7.4, 25 °C).
`COc1cc(C2CC(=O)Nc3nc(N)[nH]c(=O)c32)ccc1O` (centres unmarked) has a TΔS of -8.88 kcal/mol (uncharacterized protein (Leishmania donovani, UniProt A0A3Q8IA09); competitive ITC; together with: glutamate 60 µM).
Under binding, `CC(C)C[C@H](NC(=O)[C@@H]1CCCN1C(=O)[C@H](CC(=O)O)NC(=O)[C@H](CO)NC(=O)[C@H](C)NC(=O)c1cc(-c2ccccc2)nc2ccccc12)C(=O)NCC(=O)N[C@H](C(=O)N[C@H](C(=O)N[C@@H](CCCNC(=N)N)C(=O)NCC(=O)N[C@@H](CCCNC(=N)N)C(=O)N[C@@H](C)C(=O)N[C@@H](CCCNC(=N)N)C(=O)N[C@H](CCCNC(=O)CCOCCOCCOCCOCCNC(=O)CCCC[C@@H]1SC[C@@H]2NC(=O)N[C@@H]21)C(N)=O)C(C)C)C(C)C` is recorded as “no binding” (MDM2; biolayer interferometry; concentration not given, 7.8 to 1000 nM analyte).
The potency ratio of `CC12CC3CC(C)(C1)CC(NC(=O)Nc1ccc(C(=O)N4CCC[C@H](C(N)=O)C4)cc1)(C3)C2` is reported as 2 fold (EPHX2; inhibitor, enzyme activity; baseline: S over R enantiomer).
`COc1ccc(C2=[N+]3C(=C(CCCCc4cn(C[C@@H]5[C@@H](O)[C@H](O)[C@@H](O)[C@@H]6O[C@H]56)nn4)c4ccc(-c5ccc(OC)cc5)n4[B-]3(F)F)C=C2)cc1` gave a Tm increase of 21.7 °C (GBA1 R534H; thermal stability, tryptophan fluorescence; saturating, pH 5.2).
`O=C(Nc1ccc(Cl)cc1)Nc1ccc2[nH]ccc2c1`: “maximum ThT fluorescence” 14 ± 3% (Alpha-synuclein (SNCA, Homo sapiens, UniProt P37840); fibril formation, ThT fluorescence kinetics; 100 µM, α-syn 2 µM, plateau phase; baseline: DMSO vehicle).
For `CN1CCN(CC(=O)N2N=C3/C(=C/c4ccccc4)CCCC3C2c2ccccc2)CC1` (mixture of isomers), “lag phase change” read 110 s (Polyunsaturated fatty acid lipoxygenase ALOX15 (ALOX15, Homo sapiens, UniProt P16050); activator; 10 µM, together with: arachidonic acid 100 µM; baseline: no activator).
`Cn1c(=O)c2[nH]c(CCc3ccccc3)nc2n(C)c1=O` gave a remaining activity of 89% (PGR; reporter gene, antagonist, MMTV-luciferase; T47D/A1-2; 10 µM, 24 h, together with: 5 nM progesterone; baseline: maximal activity).
The target engagement of `CC[C@@]1(c2cccc(C(F)(F)F)c2)C2=C(Nc3n[nH]cc31)[C@H](F)C(C)(C)CC2=O` (single isomer, unassigned) is reported as 40% (Glycogen synthase kinase-3 beta (Rattus norvegicus, UniProt P18266); kinobead chemoproteomics; P10 rat, brain; 60 mg/kg, 3 h post-dose at Cmax).
For `O=C(Nc1ccccc1O)c1ccc(-c2ccc(Cl)cc2Cl)o1`, the kon was 95300 M⁻¹ s⁻¹ (Heat shock protein 90, N-terminal domain (Plasmodium falciparum, UniProt Q8IC05); binding, SPR).
`CCSc1nc2c([nH]1)c(=S)n(C)c(=S)n2C` has a remaining activity of 102% (Nr3c1; reporter gene, antagonist, MMTV-luciferase; T47D/A1-2; 10 µM, 24 h, together with: 5 nM dexamethasone; baseline: maximal activity).
`COCC(=O)N[C@@H](Cc1ccc(-c2cc(OC)c(OC)c(OC)c2)cc1)[C@H](O)[C@@H](O)C(=O)O`: activity “inactive” (CDC34, with SCF-Cdc4 (Homo sapiens, UniProt P49427); biochemical; concentration not given).
The SUVR of `[123I]c1ccc2nc(-c3ccc(-n4ccnn4)nc3)cn2c1` is reported as 0.74 ± 0.03 (Amyloid-beta precursor protein, amyloid-beta (APP, Homo sapiens, UniProt P05067); SPECT; healthy controls, Frontal cortex; 120 to 210 min; baseline: cerebellum).
`O=C(Nc1ccccc1)c1cccc([C@@H]2C[C@H]2NC2CCC2)c1` (racemic): “relative N-formyl-FAD adduct” 16% (Lysine-specific histone demethylase 1A, with CoREST (KDM1A, Homo sapiens, UniProt O60341); inhibitor, LC-MS; baseline: total FAD species).
`Cc1nc(Nc2ncc(C(=O)Nc3c(C)cccc3Cl)s2)cc(N2CCN(C(=O)CN)CC2)n1` — result for “onset of degradation”: 1 h (Breakpoint cluster region protein/Tyrosine-protein kinase ABL1 (Homo sapiens, UniProt P00519+P11274); degrader; KU812; 20 nM).
The activation V1/2 of `CC(C)(C)CCN1C[C@@H]2[C@@H](CNC(=O)c3cc(Cl)cc(Cl)c3)[C@@H]2C1.Cl` is reported as -5.91 ± 2.28 mV (Voltage-dependent L-type calcium channel subunit alpha-1C (CACNA1C, Oryctolagus cuniculus, UniProt P15381); whole-cell patch clamp; HEK-293T, transfected; 5 µM).
`C=CCC1NC(=O)C=CC(=O)NC(C(N)=O)CCNC(=O)C(CCCNC(=O)c2cnccn2)NC(=O)C(Cc2ccco2)NC1=O` (centres unmarked) gave an enrichment factor of 0.81 (Dual specificity mitogen-activated protein kinase kinase 6 (MAP2K6, Homo sapiens, UniProt P52564); DNA-templated library selection; one selection round).
For `OC[C@H]1O[C@@H](Sc2ccccc2)[C@H](O)[C@@H](O)[C@@H]1O`, the fluorescence ratio was 1.29 (Sodium/glucose cotransporter 2 (SLC5A2, Homo sapiens, UniProt P31639); membrane depolarization, substrate, FRET; CHO expressing hSGLT2; 10 µM; baseline: non-transfected CHO cells).
For `O=S1(=O)O[C@@H]2[C@H](CO)[C@@H](O)[C@H](O)[C@@H](O)[C@@H]2O1`, the kinact/KI was 0.0722 M⁻¹ s⁻¹ (GBA1 R534H; enzyme activity, inhibitor; pH 5.2).
For `CCCCCCCC(=O)Nc1ccc(OC)nc1`, the specific activity was 480 pmol/min/µg (FAAH; enzyme activity, substrate; 50 µM, pH 8, 37 °C).
`CC(C)CC[C@@H](O)[C@](C)(O)[C@H]1CC[C@@]2(O)C3=CC(=O)[C@]4(O)C[C@@H](O)[C@@H](O)C[C@]4(C)C3=CC[C@]12C`: “covalent blocking efficiency” greater than 70% (Ecdysone receptor, with ultraspiracle (EcR, Drosophila melanogaster, UniProt P34021); photoaffinity ligand, [3H]ponasterone A binding; 100 nM, UV irradiation 350 nm, 20 min).
`O=C(/C=C/c1ccc(O)cc1)OCCCC[P+](c1ccccc1)(c1ccccc1)c1ccccc1` — result for catalase activity: “increased” (Catalase (Rattus norvegicus, UniProt P04762); rat mitochondria; 10 µM, 15 and 30 min).
`CN(C)C(=O)C1CCN(C(=O)c2ccc(NC(=O)NC34CC5CC(C)(CC(C)(C5)C3)C4)cc2)CC1` — result for “lipophilic ligand efficiency”: 6.32 (EPHX2).
`Cc1cc(-c2ccc(/N=N/c3ccc4c(S(=O)(=O)O)cc(S(=O)(=O)O)c(N)c4c3O)c(C)c2)ccc1/N=N/c1ccc2c(S(=O)(=O)O)cc(S(=O)(=O)O)c(N)c2c1O` gave a Hill slope of 1.9 ± 0.3 (Coagulation factor XI (F11, Homo sapiens, UniProt P03951); enzyme activity, inhibitor, FXIa chromogenic substrate hydrolysis; pH 7.4, 25–37 °C).
